{"data": "Experimental data of several laboratories", "note": "Numbered parts are unrelated; each lists some results of a single study."}
{"data": "Study 1", "target": "Protein C-ets-1 (ETS1, Homo sapiens, UniProt P14921, residues 1-441, full length assumed)", "technique": "protein-binding microarray", "molecule type": "double-stranded DNA, one strand shown", "matrix": "in vitro", "concentration": "not given", "setting": "k-mer, scored over probes, only values ≥0.25", "reading": "higher = stronger binding", "Residues (chain)": "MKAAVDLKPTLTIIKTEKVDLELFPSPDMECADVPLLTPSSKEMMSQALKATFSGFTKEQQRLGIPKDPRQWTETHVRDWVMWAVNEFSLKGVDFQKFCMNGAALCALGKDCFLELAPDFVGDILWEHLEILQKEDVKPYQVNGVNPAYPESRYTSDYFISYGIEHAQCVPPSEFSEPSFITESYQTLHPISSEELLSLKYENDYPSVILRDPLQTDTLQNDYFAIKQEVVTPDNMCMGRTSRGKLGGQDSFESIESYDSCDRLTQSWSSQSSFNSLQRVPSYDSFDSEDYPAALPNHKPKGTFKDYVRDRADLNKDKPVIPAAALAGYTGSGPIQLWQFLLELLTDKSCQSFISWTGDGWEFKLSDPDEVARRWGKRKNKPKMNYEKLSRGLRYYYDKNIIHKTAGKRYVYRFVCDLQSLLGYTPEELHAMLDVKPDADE"}
{"Oligonucleotide": "AAATTTCC", "E-score": 0.414}
{"Oligonucleotide": "GAAGGAAA", "E-score": 0.374}
{"Oligonucleotide": "ACCTTCCT", "E-score": 0.315}
{"Oligonucleotide": "CCGGTACA", "E-score": 0.335}
{"Oligonucleotide": "CCGGATAC", "E-score": 0.477}
{"Oligonucleotide": "AGATATCC", "E-score": 0.336}
{"Oligonucleotide": "CGGCAGGA", "E-score": 0.303}
{"Oligonucleotide": "TAGAGGAA", "E-score": 0.285}
{"Oligonucleotide": "GGATGTGA", "E-score": 0.449}
{"Oligonucleotide": "AGTTCCGG", "E-score": 0.473}
{"Oligonucleotide": "TAAGGAAA", "E-score": 0.322}
{"Oligonucleotide": "CCGGCCAC", "E-score": 0.3}
{"Oligonucleotide": "GGAAGTCC", "E-score": 0.434}
{"Oligonucleotide": "GTACGGAA", "E-score": 0.353}
{"Oligonucleotide": "AGGAAACT", "E-score": 0.423}
{"Oligonucleotide": "ATCAGGAT", "E-score": 0.287}
{"Oligonucleotide": "AGTGCCGG", "E-score": 0.263}
{"Oligonucleotide": "CACTTTCC", "E-score": 0.322}
{"Oligonucleotide": "GGATGGTA", "E-score": 0.274}
{"data": "Study 2", "target": "Ras GTPase-activating protein-binding protein 1, RRM domain (G3BP1, Homo sapiens, UniProt Q13283)", "technique": "RNA Bind-n-Seq", "molecule type": "RNA", "matrix": "in vitro", "concentration": "1 µM", "setting": "whole 134-nt RNA, ends assumed", "together with": "150 mM KCl", "reference": "input library", "reading": "higher = stronger binding", "shared flanks, not repeated": "GGGAGUUCUACAGUCCGACGAUC … UGGAAUUCUCGGGUGUCAAGG", "sequence of UniProt Q13283 (whole entry, looked up)": "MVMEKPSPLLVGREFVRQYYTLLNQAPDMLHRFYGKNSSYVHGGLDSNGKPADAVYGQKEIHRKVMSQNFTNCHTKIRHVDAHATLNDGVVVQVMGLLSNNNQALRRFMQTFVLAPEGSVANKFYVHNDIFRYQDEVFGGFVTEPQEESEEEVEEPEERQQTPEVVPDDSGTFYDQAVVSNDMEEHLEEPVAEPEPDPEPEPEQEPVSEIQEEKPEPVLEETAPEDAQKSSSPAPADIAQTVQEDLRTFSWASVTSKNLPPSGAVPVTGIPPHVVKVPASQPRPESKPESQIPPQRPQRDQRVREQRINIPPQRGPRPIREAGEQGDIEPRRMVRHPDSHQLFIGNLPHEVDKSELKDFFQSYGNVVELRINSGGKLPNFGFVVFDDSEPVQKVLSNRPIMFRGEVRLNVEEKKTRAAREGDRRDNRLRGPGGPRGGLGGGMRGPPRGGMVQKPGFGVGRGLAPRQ"}
{"Oligonucleotide": "GCAGGAAGUAAAAACAAAUGGAAAUGCUUCGGAUAGUGGCCGGGGUGGGGGUUGCUAAGGAAAGGGUGGGAUGGGAGUGGGUAAAGAGUU", "log2 enrichment": 1.29}
{"Oligonucleotide": "UAACUUUAGAGGAGCAUCUGAUGGAUAUGGCAGUGGACGUGGAUUUGGGGAUGGCUAUAAUGGGUAUGGAGGAGGACCUGGAGGUGGCAA", "log2 enrichment": -0.548}
{"Oligonucleotide": "UCAAGUCCUGUGCUACACAUCGUAUGUACCGAAUCGGGAAGGGAAGGGGAAGGGAAAGUAUUAUGUUACGCCGUUCGGAUCUGCACUUCC", "log2 enrichment": 0.97}
{"Oligonucleotide": "CAAGUCCUGUGCUACACAUCGUAUGUACCGAAUCGGGGUUUGGGUUUGGUUUGGGAAAGUAUUAUGUUACGCCGUUCGGAUCUGCACUUC", "log2 enrichment": -0.435}
{"Oligonucleotide": "AGUCCUGUGCUACACAUCGUAUGUACCGAAUCGGGAAAAAGGGUUUGGGAAAAAGGGAAAGUAUUAUGUUACGCCGUUCGGAUCUGCACU", "log2 enrichment": 0.195}
{"Oligonucleotide": "AAGUCCUGUGCUACACAUCGUAUGUACCGAAUCGGGCCCCGGCCCCGGCCCCGGGGAAAGUAUUAUGUUACGCCGUUCGGAUCUGCACUU", "log2 enrichment": -1.25}
{"Oligonucleotide": "CCUGUGCUACACAUCGUAUGUACCGAAUCGGGGAGGGGUUUUUUUGGGGUUUUUUUGGGGAAAGUAUUAUGUUACGCCGUUCGGAUCUGC", "log2 enrichment": 0.423}
{"Oligonucleotide": "GCAGGAAGUAAAAACAAAUGGAAAUGCUUCGGAUAGUGGCAGGGGUGGGGGUUGCUAAGGAAAGGGUGGGAUGGGAGUGGGUAAUGAGUU", "log2 enrichment": 0.983}
{"Oligonucleotide": "UUGUUUGAAACAGCAACGCUUCGGUCAGGGUAUCUUUUACCAGACACUAAAGCAUAUGGAGAUAGAAUAGAAAGAAUGCUUCGCCUCAGU", "log2 enrichment": -0.165}
{"Oligonucleotide": "AGUCCUGUGCUACACAUCGUAUGUACCGAAUCGGUUUUUGGAAAAAAAGGAAAAAGGAAAGUAUUAUGUUACGCCGUUCGGAUCUGCACU", "log2 enrichment": -0.297}
{"data": "Study 3", "target": "PABPC1L2, full length, GST fusion (mouse, UniProt A0ABA7IW68)", "technique": "RNAcompete", "molecule type": "RNA", "matrix": "in vitro", "concentration": "20 nM", "setting": "7-mer, probes averaged, single round", "reference": "mean of 7-mers", "reading": "higher = stronger binding", "Residues (chain)": "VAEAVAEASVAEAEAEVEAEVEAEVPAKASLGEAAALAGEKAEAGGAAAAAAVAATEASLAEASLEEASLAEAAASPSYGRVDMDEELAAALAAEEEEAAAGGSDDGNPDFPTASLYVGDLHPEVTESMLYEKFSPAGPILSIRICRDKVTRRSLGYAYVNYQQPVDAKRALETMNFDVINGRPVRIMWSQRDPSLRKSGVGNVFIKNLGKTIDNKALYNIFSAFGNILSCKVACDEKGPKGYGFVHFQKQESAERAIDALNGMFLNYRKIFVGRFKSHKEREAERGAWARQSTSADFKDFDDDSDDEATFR"}
{"Oligonucleotide": "GGUACUA", "7-mer Z-score": 0.117}
{"Oligonucleotide": "GGUGGGU", "7-mer Z-score": 0.095}
{"Oligonucleotide": "CUGCUGG", "7-mer Z-score": -0.211}
{"Oligonucleotide": "CCGCACA", "7-mer Z-score": -0.248}
{"Oligonucleotide": "GCCAUUG", "7-mer Z-score": -0.0989}
{"Oligonucleotide": "GCUCACA", "7-mer Z-score": -0.104}
{"Oligonucleotide": "CGGCACG", "7-mer Z-score": 0.0678}
{"Oligonucleotide": "ACGUAGU", "7-mer Z-score": -0.238}
{"Oligonucleotide": "UCGACAG", "7-mer Z-score": -0.153}
{"Oligonucleotide": "GUACUGC", "7-mer Z-score": -0.195}
{"Oligonucleotide": "UCGUUUA", "7-mer Z-score": -0.487}
{"Oligonucleotide": "UAUAAAG", "7-mer Z-score": 1.95}
{"Oligonucleotide": "ACGUAAA", "7-mer Z-score": 0.675}
{"Oligonucleotide": "CGCUUUU", "7-mer Z-score": -0.17}
{"Oligonucleotide": "AGGGGCC", "7-mer Z-score": 0.253}
{"Oligonucleotide": "AGCCACC", "7-mer Z-score": -0.0935}
{"Oligonucleotide": "GUUAAUG", "7-mer Z-score": -0.289}
{"Oligonucleotide": "CGCUGCU", "7-mer Z-score": -0.266}
{"Oligonucleotide": "GAUCUCC", "7-mer Z-score": -0.394}
{"Oligonucleotide": "GCUACAU", "7-mer Z-score": -0.177}
{"Oligonucleotide": "CACUCAA", "7-mer Z-score": -0.0156}
{"Oligonucleotide": "CCUAGUG", "7-mer Z-score": -0.24}
{"Oligonucleotide": "ACCCUAC", "7-mer Z-score": -0.182}
{"Oligonucleotide": "GGAGCAC", "7-mer Z-score": -0.0464}
{"Oligonucleotide": "AACCUAU", "7-mer Z-score": 0.0587}
{"data": "Study 4", "target": "RNA binding protein fox-1 homolog 2, RRM domain, GST-SBP tag (RBFOX2, Homo sapiens, UniProt O43251-10, residues 100-194)", "technique": "RNA Bind-n-Seq", "molecule type": "RNA", "matrix": "in vitro", "concentration": "365 nM", "setting": "natural RNA segment, single round, ends assumed", "reference": "no-protein control", "reading": "higher = stronger binding", "shared flanks, not repeated": "GGGAGUUCUACAGUCCGACGAUC … UGGAAUUCUCGGGUGCCAA", "Residues (chain)": "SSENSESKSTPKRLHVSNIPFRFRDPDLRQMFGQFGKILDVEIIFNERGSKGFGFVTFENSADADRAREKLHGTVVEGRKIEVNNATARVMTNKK"}
{"Oligonucleotide": "UAAGAAAACUUGUGUGCUUUUCAAAAAGGCAGUGCUAAGCACAAGAUUUCAAGAAAGCCUCUUCUUGUUGCCUAGCUGAGUGGGAGAGUCAUUUUCCCCAGACACUACAU", "RBNS enrichment (R)": 0.323}
{"Oligonucleotide": "AGAGCUCCACAAUCAAGAUGGCAAAUGGAAACGUAAUCUGACUUCCUGGUGAAAAAUAAAAACCGGAGAAGUCAUUUGGAGGGCCAUCCUAAAGCUCUACUGUAUAAUGA", "RBNS enrichment (R)": 0.474}
{"Oligonucleotide": "UUCAUUUGAACGAAGAACUUCAAAAAGCACAGGACUAGAUGAUCUCUGUUCCUUUUGGCUCUAAUAUGCUACAACUGUAGGCCAAUUAUCACUUUACCAAUUAAGAGUUA", "RBNS enrichment (R)": 0.736}
{"Oligonucleotide": "UUCUGUCUGAAUGGCCCCCCUUUUCAUGCACGCUCGUUCUUAAGAGACGCACCAUCCGCAGGCAGCGUCUCAGUGAAGCCUGUCCCCUGGGCUUGUCCACGGCAGGAGGC", "RBNS enrichment (R)": 2.27}
{"Oligonucleotide": "UAUAGUAGGCAAAAAGUACAGAAAUAGAUGCAAUAAGUGUGGUGAGUCUUUGAGCCUACGAGUCAUGCCACCAGCCAUAAGUUGACCUAUCACUUGAGAACCUCCUCAGC", "RBNS enrichment (R)": 0.395}
{"Oligonucleotide": "AAAGGAGGUGAGAGUUUAGUCCCUUCUGCAGUUUUCUCCAAGCUGUGUCCUGUGAAUUUCAACCCUUGGAGCCUAAGAAAACCCUAGGAAGAUGAUGUUAAUUUGCUGUC", "RBNS enrichment (R)": 0.393}
{"Oligonucleotide": "GCCUUUCCAGGUUUCCUUUAGCUUCCCUGCUUCCUGGGAAUCAGGAGCCUGGACACUGCCAUCUCUAGAGCAGAGUGGAGGCCUGGACUCCCUUUGCUCACUCCAUUCGG", "RBNS enrichment (R)": 0.294}
{"Oligonucleotide": "UUAGCUAUCUGCCUCUUUCCUUUAGCUGGGAAAGUGAGAGCUGGCAUACUAUGCAGUUUUUAUGUUUUCCAUAGUAAGUCAGAAAAUGCCUCCUAUUUCUGGCAUCAGAA", "RBNS enrichment (R)": 0.399}
{"Oligonucleotide": "CUCAGCACGUUCCUCCCUGGAGAGCGGGCGCCACGGCUGGUAUUCUGCAGGCUGAAUGCAGUCUCCAGACUGGAAACGCAGAGCGGCUCCUCACGCCUAAUCCUGUUGAC", "RBNS enrichment (R)": 0.764}
{"Oligonucleotide": "CCUUUUGUUUCAAAAAAUGUAAUAUUUUCCCCCAAGCGUUUUAUAUUUAUGUAUUUUGUAUUCAAUGUGAGGCUUAUUAAAAAUAGUGAUUCUAAUGUAAGAAUCAGCUA", "RBNS enrichment (R)": 0.671}
{"Oligonucleotide": "AAUAAAUUCCCAACUUCUCUUGCUUUCUAUGCUGUUUGUAGUGAAAUAAUAGAAUGAGCACCCAUUCCAAAGCUUUAUUACCAGUGGCGUUGUUGCAUGUUUGAAAUGAG", "RBNS enrichment (R)": 13.9}
{"Oligonucleotide": "AAGAAUGUGGAGGGAAAGAACAAGGCUGGAGGCCGGAGCAAGUGAGGACUAAGCAAGGGAAGGGAGGACCGAUUGCCAUCGGCCUUCAUGCUCUGGUUAGGGUGAGGUUG", "RBNS enrichment (R)": 1.71}
{"note": "Excerpt of the above (study 1):"}
{"Oligonucleotide": "CCGGATAC", "E-score": 0.477}
{"Oligonucleotide": "GAAGGAAA", "E-score": 0.374}
{"Oligonucleotide": "CGGCAGGA", "E-score": 0.303}
{"Oligonucleotide": "CCGGCCAC", "E-score": 0.3}
{"Oligonucleotide": "GGATGGTA", "E-score": 0.274}
{"Oligonucleotide": "CACTTTCC", "E-score": 0.322}
{"Oligonucleotide": "ATCAGGAT", "E-score": 0.287}
{"Oligonucleotide": "AGTGCCGG", "E-score": 0.263}
